Assay results from different studies.
Every numbered part comes from another study and shows a few of its results, in no order. Several values in a cell are separate wells, animals, samples, runs or records.
Chain of UniProt P10721 (whole entry, unmodified, looked up): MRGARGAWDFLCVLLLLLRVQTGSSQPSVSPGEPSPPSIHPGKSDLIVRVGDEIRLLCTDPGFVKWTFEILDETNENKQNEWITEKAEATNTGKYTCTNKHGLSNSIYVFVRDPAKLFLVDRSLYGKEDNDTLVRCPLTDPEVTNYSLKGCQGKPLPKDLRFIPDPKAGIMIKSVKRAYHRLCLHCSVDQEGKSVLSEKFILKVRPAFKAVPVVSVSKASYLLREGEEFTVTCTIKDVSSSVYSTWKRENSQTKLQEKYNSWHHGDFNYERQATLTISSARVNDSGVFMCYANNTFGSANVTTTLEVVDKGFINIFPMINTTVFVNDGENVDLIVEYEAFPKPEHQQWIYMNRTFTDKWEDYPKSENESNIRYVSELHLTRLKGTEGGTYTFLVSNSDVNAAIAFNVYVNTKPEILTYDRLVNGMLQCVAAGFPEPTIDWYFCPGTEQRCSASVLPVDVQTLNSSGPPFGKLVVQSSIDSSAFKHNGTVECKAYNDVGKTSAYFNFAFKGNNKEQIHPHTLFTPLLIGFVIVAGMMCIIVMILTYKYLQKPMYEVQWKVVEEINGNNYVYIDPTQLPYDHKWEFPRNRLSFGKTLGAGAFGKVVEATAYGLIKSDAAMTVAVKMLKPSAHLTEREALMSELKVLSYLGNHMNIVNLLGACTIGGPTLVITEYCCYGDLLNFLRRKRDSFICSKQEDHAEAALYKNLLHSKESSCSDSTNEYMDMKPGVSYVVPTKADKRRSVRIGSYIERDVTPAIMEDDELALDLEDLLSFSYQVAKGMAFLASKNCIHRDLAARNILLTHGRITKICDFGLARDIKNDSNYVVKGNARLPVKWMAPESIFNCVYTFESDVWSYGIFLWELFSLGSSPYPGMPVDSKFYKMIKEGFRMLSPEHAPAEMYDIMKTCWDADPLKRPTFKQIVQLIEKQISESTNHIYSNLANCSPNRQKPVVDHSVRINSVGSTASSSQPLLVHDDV
Chain of UniProt P49760 (whole entry, looked up): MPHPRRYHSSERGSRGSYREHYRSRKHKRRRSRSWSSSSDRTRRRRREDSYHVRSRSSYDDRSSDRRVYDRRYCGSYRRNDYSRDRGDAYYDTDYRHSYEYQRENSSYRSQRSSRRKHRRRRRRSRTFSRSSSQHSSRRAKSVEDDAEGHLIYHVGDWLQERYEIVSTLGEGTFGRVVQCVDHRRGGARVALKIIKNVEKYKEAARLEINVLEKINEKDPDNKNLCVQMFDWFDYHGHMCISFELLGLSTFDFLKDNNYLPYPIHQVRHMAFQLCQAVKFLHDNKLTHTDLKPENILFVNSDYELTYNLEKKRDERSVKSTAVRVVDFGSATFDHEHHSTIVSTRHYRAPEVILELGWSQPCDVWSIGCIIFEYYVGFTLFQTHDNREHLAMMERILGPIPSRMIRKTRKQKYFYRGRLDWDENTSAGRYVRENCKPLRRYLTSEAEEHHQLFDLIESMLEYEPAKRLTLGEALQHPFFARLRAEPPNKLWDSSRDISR
Chain of UniProt Q13705 (whole entry, looked up): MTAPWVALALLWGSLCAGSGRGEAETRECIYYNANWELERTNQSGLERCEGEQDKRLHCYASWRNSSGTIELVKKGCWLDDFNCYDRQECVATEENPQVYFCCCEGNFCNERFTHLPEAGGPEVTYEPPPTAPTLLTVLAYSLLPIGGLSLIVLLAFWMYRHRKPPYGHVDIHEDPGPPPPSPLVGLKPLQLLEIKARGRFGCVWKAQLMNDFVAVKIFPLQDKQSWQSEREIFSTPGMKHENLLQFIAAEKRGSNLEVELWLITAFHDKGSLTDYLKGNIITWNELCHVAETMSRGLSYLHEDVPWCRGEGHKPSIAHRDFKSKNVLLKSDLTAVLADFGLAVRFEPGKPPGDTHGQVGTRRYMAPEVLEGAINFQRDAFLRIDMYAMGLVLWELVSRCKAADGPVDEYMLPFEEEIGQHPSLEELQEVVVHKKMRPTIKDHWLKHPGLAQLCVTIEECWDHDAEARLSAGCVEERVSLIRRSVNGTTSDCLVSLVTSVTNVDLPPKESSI
Chain of UniProt O14730 (whole entry, looked up): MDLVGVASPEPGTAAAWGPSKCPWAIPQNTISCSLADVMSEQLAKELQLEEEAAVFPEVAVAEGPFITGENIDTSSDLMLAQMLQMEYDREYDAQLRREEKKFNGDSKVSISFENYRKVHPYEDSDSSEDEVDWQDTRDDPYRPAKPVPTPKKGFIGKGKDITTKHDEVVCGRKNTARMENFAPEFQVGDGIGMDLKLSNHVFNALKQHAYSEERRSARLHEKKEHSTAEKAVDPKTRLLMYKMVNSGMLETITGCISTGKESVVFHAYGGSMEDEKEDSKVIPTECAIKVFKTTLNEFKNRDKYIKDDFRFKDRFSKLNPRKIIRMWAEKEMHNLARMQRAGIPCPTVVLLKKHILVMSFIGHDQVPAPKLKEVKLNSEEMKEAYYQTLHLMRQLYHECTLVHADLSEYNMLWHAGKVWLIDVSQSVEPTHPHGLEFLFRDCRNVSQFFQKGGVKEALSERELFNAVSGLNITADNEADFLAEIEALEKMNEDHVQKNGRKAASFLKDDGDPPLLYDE
Chain of UniProt O94921 (whole entry, looked up): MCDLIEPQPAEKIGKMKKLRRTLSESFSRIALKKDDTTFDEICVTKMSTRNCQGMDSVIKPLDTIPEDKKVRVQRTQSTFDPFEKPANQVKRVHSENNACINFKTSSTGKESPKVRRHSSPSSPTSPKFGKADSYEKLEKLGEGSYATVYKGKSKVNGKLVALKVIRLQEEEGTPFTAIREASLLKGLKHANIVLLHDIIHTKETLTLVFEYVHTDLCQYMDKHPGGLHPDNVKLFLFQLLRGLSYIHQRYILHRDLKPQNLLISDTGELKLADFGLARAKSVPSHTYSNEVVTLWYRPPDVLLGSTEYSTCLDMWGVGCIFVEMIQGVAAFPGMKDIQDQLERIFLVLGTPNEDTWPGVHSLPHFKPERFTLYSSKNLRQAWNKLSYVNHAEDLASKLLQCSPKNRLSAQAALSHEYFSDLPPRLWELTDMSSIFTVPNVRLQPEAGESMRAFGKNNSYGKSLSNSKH
Chain of UniProt Q14012 (whole entry, looked up): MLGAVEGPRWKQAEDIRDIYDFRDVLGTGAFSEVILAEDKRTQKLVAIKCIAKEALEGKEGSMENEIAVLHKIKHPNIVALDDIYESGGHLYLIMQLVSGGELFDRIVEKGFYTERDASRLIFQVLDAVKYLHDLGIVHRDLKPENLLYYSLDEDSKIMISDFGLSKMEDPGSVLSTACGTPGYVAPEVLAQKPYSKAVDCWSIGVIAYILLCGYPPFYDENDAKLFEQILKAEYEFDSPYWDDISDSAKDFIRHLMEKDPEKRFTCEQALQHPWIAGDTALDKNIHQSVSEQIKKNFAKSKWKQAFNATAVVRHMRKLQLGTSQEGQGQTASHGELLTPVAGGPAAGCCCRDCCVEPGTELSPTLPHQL

Sample 1 — cell line: A-375; concentration: 100 µM; time: 60 h
| SMILES | viability |
| --- | --- |
| Cc1nccn1CC1CCc2c(c3ccccc3n2C)C1=O (stereo not shown) | 11.8% |
| NC[C@H]1O[C@H](O[C@H]2[C@H](O)[C@@H](O[C@H]3O[C@H](CO)[C@@H](O)[C@H](N)[C@H]3O)[C@H](N)C[C@@H]2N)[C@H](N)C[C@@H]1O | 105% |
| C[C@@H](O[C@H]1OCCN(Cc2nc(O)n(P(=O)(O)O)n2)[C@H]1c1ccc(F)cc1)c1cc(C(F)(F)F)cc(C(F)(F)F)c1 | 5.14% |

Sample 2 — observed: enzyme activity; action: inhibitor; concentration: 0.5 µM; relative to: control
Target: Dual serine/threonine and tyrosine protein kinase (DSTYK, Homo sapiens, UniProt Q6XUX3)
Chain of UniProt Q6XUX3 (whole entry, looked up): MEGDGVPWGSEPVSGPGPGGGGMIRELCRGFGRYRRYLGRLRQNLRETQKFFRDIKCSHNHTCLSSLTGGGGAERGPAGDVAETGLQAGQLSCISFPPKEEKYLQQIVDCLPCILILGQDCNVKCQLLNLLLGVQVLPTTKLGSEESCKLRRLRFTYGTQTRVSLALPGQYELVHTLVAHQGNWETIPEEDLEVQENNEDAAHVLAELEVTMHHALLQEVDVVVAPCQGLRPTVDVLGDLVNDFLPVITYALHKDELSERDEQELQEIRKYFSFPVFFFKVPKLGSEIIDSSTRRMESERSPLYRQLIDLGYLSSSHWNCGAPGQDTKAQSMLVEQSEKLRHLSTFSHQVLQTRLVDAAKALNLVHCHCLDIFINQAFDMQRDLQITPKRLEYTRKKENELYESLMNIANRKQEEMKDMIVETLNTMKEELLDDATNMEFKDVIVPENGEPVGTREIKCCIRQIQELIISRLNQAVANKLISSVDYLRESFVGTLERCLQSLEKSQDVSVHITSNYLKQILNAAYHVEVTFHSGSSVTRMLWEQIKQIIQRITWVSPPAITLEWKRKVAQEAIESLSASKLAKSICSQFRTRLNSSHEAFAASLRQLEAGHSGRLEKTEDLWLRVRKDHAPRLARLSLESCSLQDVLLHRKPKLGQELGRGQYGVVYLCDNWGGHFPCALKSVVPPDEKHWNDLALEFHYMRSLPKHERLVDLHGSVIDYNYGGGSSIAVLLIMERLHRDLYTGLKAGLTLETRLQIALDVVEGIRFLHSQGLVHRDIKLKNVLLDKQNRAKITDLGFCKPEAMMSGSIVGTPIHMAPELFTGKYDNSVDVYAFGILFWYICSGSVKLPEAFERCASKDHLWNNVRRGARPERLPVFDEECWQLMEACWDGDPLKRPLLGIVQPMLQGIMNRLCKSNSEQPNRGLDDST
| SMILES | remaining activity |
| --- | --- |
| CNC(=O)c1cc(Oc2ccc(NC(=O)Nc3ccc(Cl)c(C(F)(F)F)c3)cc2)ccn1 | 97.7% |
| C#Cc1cccc(Nc2ncnc3cc(OCCOC)c(OCCOC)cc23)c1 | 107% |
| COc1cc2ncnc(Nc3ccc(F)c(Cl)c3)c2cc1OCCCN1CCOCC1 | 101% |
| Nc1[nH]nc2nc3ccccc3nc12 | 96% |
| Cn1sc(=O)n(Cc2ccccc2)c1=O | 92.9% |
| COc1ccc(CNC(=O)Nc2ncc([N+](=O)[O-])s2)cc1 | 96.2% |
| Cc1cccc(-c2[nH]c(C(C)(C)C)nc2-c2ccc3c(c2)OCO3)n1 | 89.1% |
| COc1ccc(C(=O)Nc2sc3c(c2C(N)=O)CCCC3)cc1OC | 92.2% |
| O=C(Nc1cccc(Nc2cc(Nc3cccc(C(F)(F)F)c3)ncn2)c1)C1CC1 | 102% |
| N#CC(C#N)=C(N)/C(C#N)=C/c1ccc(O)cc1 | 92.9% |
| O=C(O)c1ccc2c3c1cccc3c(=O)n1c3ccccc3nc21 | 103% |
| Nc1ccc2ncnc(NCCc3ccc(Oc4ccccc4)cc3)c2c1 | 101% |
| CCOC(=O)c1c(C)[nH]c(/C=C2\C(=O)Nc3ccccc32)c1C | 90.8% |
| NCCNc1ncc(C(N)=O)c(Nc2cccc(C(F)(F)F)c2)n1 | 93.1% |
| O=c1c2ccccc2[nH]c(=S)n1CCN1CCC(=C(c2ccc(F)cc2)c2ccc(F)cc2)CC1 | 86.5% |

Sample 3 — technique: competition with immobilised ligand; concentration: 1 µM
Structure (SMILES): CNC(=O)Nc1ccc2c(c1)CC[C@@]21OC(=O)N(CC(=O)N(Cc2ccc(F)cc2)[C@@H](C)C(F)(F)F)C1=O
| target | observed | remaining binding [%] |
| --- | --- | --- |
| Serine/threonine-protein kinase RIO3 (RIOK3, Homo sapiens, UniProt O14730) | cell-free assay | 89 |
| Calcium/calmodulin-dependent protein kinase type 1 (CAMK1, Homo sapiens, UniProt Q14012) | cell-free assay | 95 |
| Receptor-type tyrosine-protein kinase FLT3 (FLT3, Homo sapiens, UniProt P36888, K663Q) | cell-free assay | 100 |
| Dual specificity protein kinase CLK2 (CLK2, Homo sapiens, UniProt P49760) | cell-free assay | 97 |
| Mast/stem cell growth factor receptor Kit (KIT, Homo sapiens, UniProt P10721, D816H) | cell-free assay | 67 |
| Receptor-type tyrosine-protein kinase FLT3 (FLT3, Homo sapiens, UniProt P36888) | cell-free assay | 100 |
| Receptor-type tyrosine-protein kinase FLT3 (FLT3, Homo sapiens, UniProt P36888, D835V) | cell-free assay | 76 |
| Homeodomain-interacting protein kinase 3 (HIPK3, Homo sapiens, UniProt Q9H422) | cell-free assay | 73 |
| Activin receptor type-2B (ACVR2B, Homo sapiens, UniProt Q13705) | binding | 96 |
| Tyrosine-protein kinase ABL1, phosphorylated (ABL1, Homo sapiens, UniProt P00519, Y253F) | cell-free assay | 81 |
| Cyclin-dependent kinase 14 (CDK14, Homo sapiens, UniProt O94921) | cell-free assay | 79 |

Other studies, line by line — organism: Leishmania donovani; observed: parasite growth; technique: high-content imaging; strain: MHOM/IN/80/DD8; matrix: amastigotes in THP-1 cells; concentration: 80 µM
| Compound | normalised inhibition |
| --- | --- |
| CCOc1ccc(Nc2c3c(nc4ccccc24)CCC3)cc1 | 100% and 101% and 102% |
| c1ccc(Oc2ccc(Nc3c4c(nc5ccccc35)CCC4)cc2)cc1 | 100% |

For quick reference, copied from above (sample 3):
| target | observed | remaining binding [%] |
| --- | --- | --- |
| Serine/threonine-protein kinase RIO3 (RIOK3, Homo sapiens, UniProt O14730) | cell-free assay | 89 |
| Calcium/calmodulin-dependent protein kinase type 1 (CAMK1, Homo sapiens, UniProt Q14012) | cell-free assay | 95 |
| Cyclin-dependent kinase 14 (CDK14, Homo sapiens, UniProt O94921) | cell-free assay | 79 |
| Receptor-type tyrosine-protein kinase FLT3 (FLT3, Homo sapiens, UniProt P36888, K663Q) | cell-free assay | 100 |
| Homeodomain-interacting protein kinase 3 (HIPK3, Homo sapiens, UniProt Q9H422) | cell-free assay | 73 |
